Earlier results, collected from citations in different studies.
Lines come from different studies, so protocols differ. “And” joins repeats or separate records; there may be more than shown. ± marks the error that the study gave. In brackets after ≈: the same amount, converted by molar mass.

Cc1cccc2c1ccc1cc(C(C)C)ccc12 — amount in tissue (zebrafish embryos, whole embryo; 126.3 ng/well, 48 hpf, single exposure): 1.65 ng/well and 1.54 ng/well and 1.64 ng/well
Fc1ccc([C@@H]2CCNC[C@H]2COc2ccc3c(c2)OCO3)cc1 — fraction unbound (human): 0.005
O=S(=O)([O-])C(F)(F)C(F)(F)C(F)(F)C(F)(F)C(F)(F)C(F)(F)C(F)(F)C(F)(F)F.[K+] — clearance half-life (human): ≤ 6.2 years
CN1Cc2c(N)cccc2C(c2ccccc2)C1 (stereo not shown) — fraction unbound (mouse): 0.078
FC(F)OC(F)(F)C(F)Cl (stereo not shown) — IC50 (CYP2D6; inhibitor; Tox21 screening): inactive
O=S(=O)(O)C(F)(F)F — pKa: ~-6
NC1CCCCC1N.O=C([O-])C(=O)[O-].[Pt+2] (stereo not shown) — Cmax (item: free platinum; mice, plasma ultrafiltrate; intravenous, 8.34 mg Pt/kg): 20 µg Pt/mL
CCOC(=O)C1=C[C@@H](OC(CC)CC)[C@H](NC(C)=O)[C@@H](N)C1 — volume of distribution (rat; dose not given): 3.1 L/kg
CCCCCOc1ccc(-c2cc(-c3ccc(C(=O)N[C@H]4C[C@@H](O)[C@@H](O)NC(=O)[C@@H]5[C@@H](O)[C@@H](C)CN5C(=O)[C@H]([C@H](O)CC(N)=O)NC(=O)[C@H]([C@H](O)[C@@H](O)c5ccc(O)c(OS(=O)(=O)O)c5)NC(=O)[C@@H]5C[C@@H](O)CN5C(=O)[C@H]([C@@H](C)O)NC4=O)cc3)no2)cc1 — fraction excreted in faeces (human; with: radiolabelled compound): 71%
Brc1ccc(Oc2c(Br)cc(Br)cc2Br)c(Br)c1 — log Kow: 7.24
c1csc(-c2ccc(-c3cccs3)s2)c1 — LD50 (rat; intraperitoneal): 110 mg/kg
C=C1CCC2C(C1)c1c(OC)cc(C(C)(C)CCCCCC)cc1OC2(C)C (stereo not shown) — Ki (CB1 receptor; binding): 0.529 µM
O=C1CCc2ccc(OCCCCN3CCN(c4cccc(Cl)c4Cl)CC3)cc2N1 — fraction unbound (human): 0.002
O=C(O)C(F)(F)C(F)(F)C(F)(F)C(F)(F)C(F)(F)C(F)(F)C(F)(F)C(F)(F)C(F)(F)F — half-life (human): 60000 h
c1cc2c3c(cccc3c1)CC2 — amount in tissue (zebrafish embryos, whole embryo; 178.9 ng/well, 48 hpf, single exposure): 1.15 ng/well and 1.23 ng/well and 1.06 ng/well
O=C(O)C(F)(F)C(F)(F)C(F)(F)C(F)(F)C(F)(F)C(F)(F)C(F)(F)C(F)(F)C(F)(F)C(F)(F)F — half-life (human): 105000 h
O=C(O)C(F)(F)C(F)(F)C(F)(F)C(F)(F)C(F)(F)C(F)(F)C(F)(F)F — pKa (phase separation; literature value): 1.01
CC(C)OC(=O)[C@@H](N)Cc1ccc(OP2(=O)CO[C@@H](Cn3ccc(N)nc3=O)CO2)cc1 (stereo partly shown) — half-life (PBS; pH 6.5, Sp isomer): 2.02 h
Cc1sc2c(c1C)C(c1ccc(Cl)cc1)=N[C@@H](CC(=O)OC(C)(C)C)c1nnc(C)n1-2 — AUC(0-inf) (mouse; intravenous, 5 mg/kg): 2.13 µg·h/mL
Cc1c(C(=O)NN)nn(-c2ccc(Cl)cc2Cl)c1-c1ccc(Cl)cc1 — Ki (CB1 receptor; binding): 0.374 µM
CC(=O)C[C@@H](c1ccccc1)c1c(O)c2ccccc2oc1=O — Tmax (human, fasted; oral, 12.5 mg single dose, with: racemic warfarin 25 mg): 1.72 h
CC(C)(C)c1ccc(C(O)CCCN2CCC(C(O)(c3ccccc3)c3ccccc3)CC2)cc1 (stereo not shown) — Cmax (human, plasma; concentration not given, range of reported values): 0.002 to 0.568 µM
FC(F)(F)C(F)(F)C(F)(F)C(F)(F)C(F)(F)C(F)(F)CCI — IC50 (CYP2D6; inhibitor; Tox21 screening): inactive
COC(=O)[C@H]1[C@@H](c2ccc(C)cc2)C[C@@H]2CC[C@H]1N2C/C=C/C[18F] — tissue uptake (PET; rat, striatum; dose not given, 24 min): 1.94 %ID/g and 2.48 %ID/g and 1.92 %ID/g and 2.92 %ID/g and 2.3 %ID/g
c1ccc2c(c1)ccc1c3ccccc3ccc21 — Km (substrate; human liver microsomes): 0.05 µM
C=C[C@@H]1C[C@]1(NC(=O)[C@@H]1C[C@@H]2CN1C(=O)[C@H](C(C)(C)C)NC(=O)O[C@@H]1C[C@H]1CCCCCc1nc3ccc(OC)cc3nc1O2)C(=O)NS(=O)(=O)C1CC1 — unchanged faecal excretion (bile duct-cannulated rat; oral, dose not given): 73%
CCc1cccc(C)c1N(C(=O)CCl)C(C)COC (stereo not shown) — log Kow: 3.13
C[C@H]1C[C@@H]2[C@H]([C@@H](O)C[C@@]3(C)[C@H]2CC[C@]3(O)C(=O)CO)[C@@]2(C)C=CC(=O)C=C12 — Cmax (human, plasma; concentration not given, median of reported values): 0.313 µM
c1ccc2c(c1)cc1ccc3cccc4c5ccccc5c2c1c34 — amount in tissue (zebrafish embryos, whole embryo; 350.8 ng/well, 48 hpf, single exposure): 0.247 ng/well and 0.383 ng/well and 0.299 ng/well
C[C@]12CC[C@H](n3ccnc3)CC1=CC[C@@H]1[C@@H]2CC[C@]2(C)C(n3cnc4ccccc43)=CC[C@@H]12 — Cmax (male CD-1 mice, plasma; oral, dose not given): 0.706 µg/mL
C[C@@H](O[C@H]1OCCN(Cc2n[nH]c(=O)[nH]2)[C@H]1c1ccc(F)cc1)c1cc(C(F)(F)F)cc(C(F)(F)F)c1 — fraction unbound (mouse): 0.002
c1ccc2c(c1)-c1cccc3c1c-2cc1ccccc13 — amount in tissue (zebrafish embryos, whole embryo; 630.75 ng/well, 48 hpf, single exposure): 0.6 ng/well and 0.519 ng/well and 0.365 ng/well
N#C[C@@]1(c2ccc3c(N)ncnn23)O[C@H](CO)[C@@H](O)[C@H]1O — lung concentration (rhesus macaque; intravenous, 10 mg/kg remdesivir): 2670 nmol/kg
NC12CC3CC(CC(C3)C1)C2 — fraction unbound (mouse): 0.181
CC(C)(C)[C@H](NC(=O)C(F)(F)F)C(=O)N1C[C@H]2[C@@H]([C@H]1C(=O)N[C@H](C#N)C[C@@H]1CCNC1=O)C2(C)C — fetal weight (rabbit; 1000 mg/kg/day; reference: control): 0.91 fold
COc1cc2c(c(OC)c1OC)-c1ccc(OC)c(=O)cc1[C@@H](NC(C)=O)CC2 — half-life (human): 4.32 h
CC(C)CNC(=O)[C@@H](N)Cc1ccc(OP2(=O)CO[C@@H](Cn3cnc4c(N)ncnc43)CO2)cc1 (stereo partly shown) — half-life (PBS; pH 6.5, Rp isomer): 12.8 h
CC(F)(F)c1cc(F)ccc1-c1sc2cc(O)ccc2c1Oc1ccc(/C=C/C(=O)O)cc1 — STD10 (rat; concentration not given, 4 weeks): 300 mg/kg/day
CCCCCCCCCCCCCCCCOCCCOP(=O)(O)CO[C@H](C)Cn1cnc2c(N)ncnc21.N — liver extraction fraction (rats; oral): 86%
c1cc2ccc3cccc4ccc(c1)c2c34 — amount in tissue (zebrafish embryos, whole embryo; 505.6 ng/well, 48 hpf, single exposure): 108 ng/well and 106 ng/well and 105 ng/well
CCOC(=O)C1=C[C@@H](OC(CC)CC)[C@H](NC(C)=O)[C@@H](N)C1 — blood-to-plasma ratio (human): 1.42
CCCCCOc1ccc(-c2ccc(-c3ccc(C(=O)N[C@H]4C[C@@H](O)[C@@H](O)NC(=O)[C@@H]5[C@@H](O)[C@@H](C)CN5C(=O)[C@H]([C@@H](C)O)NC(=O)[C@H]([C@H](O)[C@@H](O)c5ccc(O)cc5)NC(=O)[C@@H]5C[C@@H](O)CN5C(=O)[C@H]([C@@H](C)O)NC4=O)cc3)cc2)cc1 — AUC(0-inf) (end-stage renal disease; 50 mg single dose, predialysis dosing): 48.1 ± 5 µg·h/mL
NC(=O)c1nc(F)c[nH]c1=O — lung concentration (hamster; intraperitoneal, 12.5 mg): 90.7 µg/g
Clc1cc2c(cc1Cl)Oc1cc(Cl)c(Cl)cc1O2 — lowest dose with hepatic inflammation (female C57BL/6 mouse; every 28 days for 4 days): 0.01 mg/kg
O=S(=O)(O)C(F)(F)C(F)(F)C(F)(F)C(F)(F)C(F)(F)C(F)(F)F — half-life (mouse, female): 648 h
N.N.O=C([O-])C1(C(=O)[O-])CCC1.[Pt+2] — Cmax (plasma; concentration not given, total, literature data): 10.4 µM
CC(C)(c1ccc(O)cc1)c1ccc(O)cc1 — dose-normalized Cmax (CD-1 mouse, female; 100 mg/kg): 9.47 (nmol/mL)/(mmol/kg)
COC(=O)[C@@H]1C[C@H](OC(C)=O)C(=O)[C@H]2[C@@]1(C)CC[C@H]1C(=O)O[C@H](c3ccoc3)C[C@]21C — Ki (kappa opioid receptor E297A): 0.015 µM and 0.0195 µM
CC(=O)CC(c1ccccc1)c1c(O)c2ccccc2oc1=O (stereo not shown) — fraction unbound (mouse): 0.094
Cc1ccc2cc(C)ccc2c1 — amount in tissue (zebrafish embryos, whole embryo; 84.2 ng/well, 48 hpf, single exposure): 0.405 ng/well and 0.489 ng/well and 0.469 ng/well
CCCSc1ccc2nc(NC(=O)OC)[nH]c2c1 — solubility (simulated gastric fluid): ~0.5 mg/mL (≈ 1880 µM)
NC1CCN(c2c(F)cc3c(=O)c(C(=O)O)cn(C4CC4)c3c2Cl)C1 (stereo not shown) — fraction unbound (mouse): 0.377
Cc1cccc(C)c1OCC(=O)N[C@@H](Cc1ccccc1)[C@@H](O)C[C@H](Cc1ccccc1)NC(=O)[C@H](C(C)C)N1CCCNC1=O — blood-to-plasma ratio (human): 0.44
NS(=O)(=O)Cc1noc2ccccc12 — fraction unbound (mouse): 0.299
O=C(O)C(F)(F)C(F)(F)C(F)(F)C(F)(F)F — half-life (human): 12.5 h
